Measurements collected from several papers.
Each line is one published result; not all experiments were run side by side. “And” joins repeats or separate records; there may be more than shown. ± gives the spread as reported.
SLCO1B3: Solute carrier organic anion transporter family member 1B3 (SLCO1B3, Homo sapiens, UniProt Q9NPD5)
Sequence of UniProt Q9NPD5 (whole entry, looked up): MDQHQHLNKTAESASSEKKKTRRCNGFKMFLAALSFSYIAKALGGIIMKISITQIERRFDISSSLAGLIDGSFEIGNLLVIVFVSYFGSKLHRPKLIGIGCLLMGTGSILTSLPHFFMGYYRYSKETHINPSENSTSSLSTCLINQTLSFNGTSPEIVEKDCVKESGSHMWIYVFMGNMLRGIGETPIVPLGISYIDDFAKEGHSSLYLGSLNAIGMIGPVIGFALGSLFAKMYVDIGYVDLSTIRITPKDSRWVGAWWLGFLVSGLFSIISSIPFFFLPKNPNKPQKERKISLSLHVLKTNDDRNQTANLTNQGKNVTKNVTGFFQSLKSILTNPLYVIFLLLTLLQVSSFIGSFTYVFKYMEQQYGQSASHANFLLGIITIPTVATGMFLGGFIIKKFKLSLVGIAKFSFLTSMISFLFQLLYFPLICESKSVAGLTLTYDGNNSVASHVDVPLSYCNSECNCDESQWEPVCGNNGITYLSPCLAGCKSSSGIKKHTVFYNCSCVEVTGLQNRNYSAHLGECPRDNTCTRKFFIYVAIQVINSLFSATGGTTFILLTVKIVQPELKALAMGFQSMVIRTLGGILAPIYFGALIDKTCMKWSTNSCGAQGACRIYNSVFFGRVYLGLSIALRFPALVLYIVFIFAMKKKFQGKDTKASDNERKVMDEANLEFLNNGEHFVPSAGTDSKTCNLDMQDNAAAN
TF: TF (Homo sapiens, UniProt P02787)
ABCG2: Broad substrate specificity ATP-binding cassette transporter ABCG2 (ABCG2, Homo sapiens, UniProt Q9UNQ0)
Sequence of UniProt Q9UNQ0 (whole entry, looked up): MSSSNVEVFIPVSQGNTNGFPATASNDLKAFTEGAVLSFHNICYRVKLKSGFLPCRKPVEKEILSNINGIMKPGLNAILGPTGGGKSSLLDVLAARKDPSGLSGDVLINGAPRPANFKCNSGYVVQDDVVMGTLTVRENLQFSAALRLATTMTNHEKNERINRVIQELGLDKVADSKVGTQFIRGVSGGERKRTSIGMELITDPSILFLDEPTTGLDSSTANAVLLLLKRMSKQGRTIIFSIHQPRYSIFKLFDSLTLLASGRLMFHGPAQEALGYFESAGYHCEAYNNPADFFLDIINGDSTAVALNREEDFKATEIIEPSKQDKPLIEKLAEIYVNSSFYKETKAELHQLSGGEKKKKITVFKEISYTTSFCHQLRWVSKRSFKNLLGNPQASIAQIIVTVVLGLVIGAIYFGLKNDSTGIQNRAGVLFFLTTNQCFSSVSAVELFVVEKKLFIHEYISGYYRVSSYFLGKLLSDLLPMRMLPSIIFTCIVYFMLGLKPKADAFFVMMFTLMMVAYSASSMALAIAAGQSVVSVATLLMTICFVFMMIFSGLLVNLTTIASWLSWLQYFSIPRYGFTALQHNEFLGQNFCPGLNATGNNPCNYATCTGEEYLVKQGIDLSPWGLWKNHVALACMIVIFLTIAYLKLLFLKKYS
Sequence of UniProt P05177 (whole entry, looked up): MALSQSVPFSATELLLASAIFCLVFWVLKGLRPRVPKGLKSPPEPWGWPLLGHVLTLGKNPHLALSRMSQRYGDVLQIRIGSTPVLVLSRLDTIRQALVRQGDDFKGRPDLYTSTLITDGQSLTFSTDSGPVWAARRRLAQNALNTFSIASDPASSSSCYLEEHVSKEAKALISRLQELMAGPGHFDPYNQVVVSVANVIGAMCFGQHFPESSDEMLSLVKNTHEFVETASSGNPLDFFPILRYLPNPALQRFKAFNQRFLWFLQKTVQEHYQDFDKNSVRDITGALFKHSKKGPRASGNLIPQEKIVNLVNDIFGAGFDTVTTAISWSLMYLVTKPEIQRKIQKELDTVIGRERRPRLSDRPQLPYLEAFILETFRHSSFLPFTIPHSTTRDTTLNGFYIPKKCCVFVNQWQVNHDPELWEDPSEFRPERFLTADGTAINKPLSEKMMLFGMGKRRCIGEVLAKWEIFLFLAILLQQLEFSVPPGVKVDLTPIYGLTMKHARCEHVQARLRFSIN
Sequence of UniProt P45984 (whole entry, looked up): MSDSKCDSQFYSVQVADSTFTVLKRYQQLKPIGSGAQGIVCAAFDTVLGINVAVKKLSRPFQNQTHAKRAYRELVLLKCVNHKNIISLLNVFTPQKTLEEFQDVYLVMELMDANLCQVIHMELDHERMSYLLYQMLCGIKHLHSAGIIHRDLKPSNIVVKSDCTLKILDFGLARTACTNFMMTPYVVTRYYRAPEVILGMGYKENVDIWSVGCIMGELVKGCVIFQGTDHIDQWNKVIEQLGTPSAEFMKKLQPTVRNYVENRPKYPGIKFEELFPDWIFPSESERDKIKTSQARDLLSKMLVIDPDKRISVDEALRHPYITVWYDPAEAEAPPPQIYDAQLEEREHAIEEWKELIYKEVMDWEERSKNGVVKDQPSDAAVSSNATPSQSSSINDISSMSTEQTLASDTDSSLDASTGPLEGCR
Sequence of UniProt P11509 (whole entry, looked up): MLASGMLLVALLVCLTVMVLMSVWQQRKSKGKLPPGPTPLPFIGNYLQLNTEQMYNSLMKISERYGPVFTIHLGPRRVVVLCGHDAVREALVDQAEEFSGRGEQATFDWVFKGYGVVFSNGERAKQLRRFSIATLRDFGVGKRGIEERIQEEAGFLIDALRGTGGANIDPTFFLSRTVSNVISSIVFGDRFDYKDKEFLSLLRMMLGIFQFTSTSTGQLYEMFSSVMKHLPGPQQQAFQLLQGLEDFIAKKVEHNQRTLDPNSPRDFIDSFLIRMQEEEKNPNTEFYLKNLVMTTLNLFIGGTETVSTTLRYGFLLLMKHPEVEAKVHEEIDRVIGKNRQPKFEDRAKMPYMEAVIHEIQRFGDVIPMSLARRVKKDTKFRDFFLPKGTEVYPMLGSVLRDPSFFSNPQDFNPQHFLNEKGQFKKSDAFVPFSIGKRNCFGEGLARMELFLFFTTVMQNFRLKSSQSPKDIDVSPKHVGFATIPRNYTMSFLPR

Structure (SMILES) | tested on | test | test system | setting | how to read | quantity | result
C=CC(=O)Nc1cccc(Cn2ncc3cnc(Nc4cnn(CCOC)c4)nc32)c1 | MAP3K3 human | binding, KINOMEscan |  | 100 nM | lower = stronger binding | percent of control | 100%
Nc1ncc(-c2cc(-c3cnn(CC(F)(F)F)c3)ncc2F)nc1C(=O)NC1CNCC(F)C1 (stereo not shown) | MAPKAPK5 | KINOMEscan |  | 1 µM | baseline: DMSO control | remaining binding | 94%
O=C(c1ccc(OCCN2CCCCC2)cc1)c1c(-c2ccc(O)cc2)sc2cc(O[C@@H]3O[C@H](C(=O)O)[C@@H](O)[C@H](O)[C@H]3O)ccc12 | SLCO1B3 |  | liver |  |  | contribution to uptake | 94%
CN(CCNCc1cc(C(=O)[O-])ccc1[O-])CCNCc1cc(C(=O)[O-])ccc1[O-].[Cl-].[Fe+3].[K+].[K+] | TF |  |  | pH 7.4, 37 °C, 4-fold transferrin decrease |  | transchelation half-life | 28 min
c1ccc(CN2Cc3cccc(n3)CN(Cc3ccccn3)Cc3cccc(n3)C2)nc1 | Mn2+ | potentiometric titration | 0.16 M NaCl | 25 °C |  | log stability constant, hydroxo complex | 10.8
CNC(=O)C1CCCN(C(=O)C2CC3CCC2N3C(=O)[C@@H]2C[C@@H](O)CN2C(=O)NCc2cccc(Cl)c2F)C1 (mixture of isomers) | Cytochrome P450 1A2 (CYP1A2, Homo sapiens, UniProt P05177) | preincubation with NADPH | human | 1.85 µM | baseline: negative control | remaining activity | 93.4% and 103% and 94.6%
C=C(NC(=O)c1csc(-c2nc3c(cc2O)-c2nc(cs2)C(=O)NC(C(C)O)C(=O)NC(=C(C)OC)c2nc(cs2)C(=O)NC2c4nc(cs4)C(=O)NC(COC(=O)c4c5c6c(cccc6n4O)COC(=O)C(OC4CC(C)(O)C(N(C)C)C(C)O4)C2OC5)c2nc-3cs2)n1)C(N)=O (stereo not shown) |  |  | ICR mice, Streptococcus pneumoniae ATCC 49169 infected, immunocompromised, blood | intravenous, 8 mg/kg/day twice daily |  | half-life | 189 min
Cc1nn(-c2cccc(N)c2)c(=O)c2cnc(Nc3ccc(N4CCNCC4)cc3)nc12 | Mitogen-activated protein kinase 9 (MAPK9, Homo sapiens, UniProt P45984) | kinase activity, inhibitor, SelectScreen kinase profiling |  |  |  | IC50 | 1380 nM
COC1CN([C@H]2CC[C@H]([C@@]3(C)Oc4c(Cl)cc(C(=O)NCc5c(SC)cc(C)[nH]c5=O)c(C)c4O3)CC2)C1 |  | RNA-seq, item: ELOVL6 mouse homolog | mouse, HT-1376 xenograft, whole blood | dose not given | baseline: vehicle | log2 fold change | 0.968
c1cc2nc(c1)CSCc1cccc(n1)CSC2 | Zn(II) complex | UV-vis titration |  | bound water deprotonation |  | pKa | 9.6
O=C(O)c1cccc(CN2Cc3cccc(n3)CN(Cc3cccc(C(=O)O)n3)Cc3cccc(n3)C2)n1 | Mn2+ | potentiometric titration |  | pH 7.4, ligand and Mn2+ 10 µM |  | pMn | 7.94
CC(C)(C)N1Cc2cccc(n2)CN(C(C)(C)C)Cc2cc(-c3nc4ccccc4s3)cc(n2)C1 | Zn(II) complex | UV-vis titration |  | bound water deprotonation |  | pKa | 8.12
O=C(c1ccc(OCCN2CCCCC2)cc1)c1c(-c2ccc(O[C@@H]3O[C@H](C(=O)O)[C@@H](O)[C@H](O)[C@H]3O)cc2)sc2cc(O)ccc12 | SLCO1B3 | transporter uptake, inhibitor | HEK293 | 10 µM, pH 7.4 |  | inhibition | 50%
CNc1nc(N)nc2c1ncn2[C@@H]1O[C@H](CO)[C@@H](O)[C@@]1(C)F | ABCG2 | bidirectional transport | MDCKII transfected with human BCRP | 10 µM, with: Ko143 1 µM |  | Papp A to B | 9.43 ± 0.21 ×10⁻⁶ cm/s
Cc1ncsc1-c1ccc(C(C)NC(=O)C2CC(O)CN2C(=O)C(NC(=O)CCCCCCCCCCN2CCCC(Nc3ncc(Cl)c(Nc4ccccc4S(=O)(=O)C(C)C)n3)C2)C(C)(C)C)cc1 (stereo not shown) | 22Rv1 | RNA-seq, item: TRAFD1 mRNA |  | concentration not given | baseline: DMSO | log2 fold change | -1.1
C[C@]12CC[C@@H]3c4ccc(O)cc4CC[C@H]3[C@@H]1CC[C@@H]2O[C@@H]1O[C@H](C(=O)O)[C@@H](O)[C@H](O)[C@H]1O | SLCO1B3 |  | HEK293-A expressing SLCO1B3 | 1 µM, 2 min |  | uptake | 2520 fmol/mg protein
CN(CCNCc1ccncc1[O-])CCNCc1ccncc1[O-].[Cl-].[Fe+3] | TF |  |  | 0.05 mM, pH 7.4, 37 °C, with: transferrin 0.10 mM |  | transchelation half-life | 19 min
CNc1nc(N)nc2c1ncn2[C@@H]1O[C@H](CO[P@](=O)(O)N[C@@H](C)C(=O)O)[C@@H](O)[C@@]1(C)F | ABCG2 | bidirectional transport | MDCKII transfected with human BCRP | 10 µM |  | Papp B to A | 1.14 ± 0.03 ×10⁻⁶ cm/s
C=CC(=O)Nc1cc(Nc2nccc(-c3cn(C)c4ccccc34)n2)c(OCC(F)(F)F)nc1N(C)CCN(C)C | Cytochrome P450 2A6 (CYP2A6, Homo sapiens, UniProt P11509) | substrate |  | 3 µM, 60 min, 2A6 isoform, liver abundance-normalized |  | contribution to substrate depletion | 3.03%
CNS(=O)(=O)Nc1nccc(Cc2c(C)c3ccc(Oc4ncccc4F)cc3oc2=O)c1F | OVMANA | cell viability, CellTiter-Glo |  | 7 days |  | IC50 | > 1000 nM
C[C@@]1(F)[C@H](O)[C@@H](CO)O[C@H]1n1cnc2c(=O)[nH]c(N)nc21 | ABCG2 | bidirectional transport | MDCKII transfected with human BCRP | 10 µM, with: Ko143 1 µM |  | Papp A to B | 2.66 ± 0.17 ×10⁻⁶ cm/s
CN(O)C(=O)CCC(=O)NCCCN(CCCCN(CCCNC(=O)CCC(=O)N(C)O)C(=O)CCC(=O)N(C)O)C(=O)CCC(=O)N(C)O.[89Zr] | TF | transchelation challenge |  | concentration not given, 1 days, 37 °C, with: apo-transferrin 10 equiv |  | transferrin binding | 12.5 ± 1.3%
